Experimental data pooled from the literature.
Compare with care: the assays were run in different laboratories. Several values in a cell are separate wells, animals, samples, runs or records. ± marks the error that the study gave.
Chain of UniProt Q62351 (whole entry, looked up): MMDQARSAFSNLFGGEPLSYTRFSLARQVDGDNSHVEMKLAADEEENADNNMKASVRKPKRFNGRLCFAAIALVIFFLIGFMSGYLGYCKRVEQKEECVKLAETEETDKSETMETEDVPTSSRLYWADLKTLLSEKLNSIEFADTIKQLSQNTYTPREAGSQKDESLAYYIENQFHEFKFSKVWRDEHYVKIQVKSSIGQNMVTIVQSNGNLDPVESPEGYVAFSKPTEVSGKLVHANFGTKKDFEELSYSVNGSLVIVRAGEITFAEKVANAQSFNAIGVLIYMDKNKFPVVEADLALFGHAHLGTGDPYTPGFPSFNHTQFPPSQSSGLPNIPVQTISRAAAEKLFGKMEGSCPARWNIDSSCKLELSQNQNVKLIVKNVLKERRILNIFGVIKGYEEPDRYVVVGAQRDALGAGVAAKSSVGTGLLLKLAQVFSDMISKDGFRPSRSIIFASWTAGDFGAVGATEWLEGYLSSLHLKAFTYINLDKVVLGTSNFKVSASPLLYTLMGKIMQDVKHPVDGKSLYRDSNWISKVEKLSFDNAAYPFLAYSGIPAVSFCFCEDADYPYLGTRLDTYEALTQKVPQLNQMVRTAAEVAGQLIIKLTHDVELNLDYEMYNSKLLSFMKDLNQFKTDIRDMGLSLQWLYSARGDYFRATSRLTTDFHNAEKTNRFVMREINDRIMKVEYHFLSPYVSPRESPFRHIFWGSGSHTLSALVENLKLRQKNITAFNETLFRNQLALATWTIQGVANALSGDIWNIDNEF
Chain of UniProt Q06187 (whole entry, looked up): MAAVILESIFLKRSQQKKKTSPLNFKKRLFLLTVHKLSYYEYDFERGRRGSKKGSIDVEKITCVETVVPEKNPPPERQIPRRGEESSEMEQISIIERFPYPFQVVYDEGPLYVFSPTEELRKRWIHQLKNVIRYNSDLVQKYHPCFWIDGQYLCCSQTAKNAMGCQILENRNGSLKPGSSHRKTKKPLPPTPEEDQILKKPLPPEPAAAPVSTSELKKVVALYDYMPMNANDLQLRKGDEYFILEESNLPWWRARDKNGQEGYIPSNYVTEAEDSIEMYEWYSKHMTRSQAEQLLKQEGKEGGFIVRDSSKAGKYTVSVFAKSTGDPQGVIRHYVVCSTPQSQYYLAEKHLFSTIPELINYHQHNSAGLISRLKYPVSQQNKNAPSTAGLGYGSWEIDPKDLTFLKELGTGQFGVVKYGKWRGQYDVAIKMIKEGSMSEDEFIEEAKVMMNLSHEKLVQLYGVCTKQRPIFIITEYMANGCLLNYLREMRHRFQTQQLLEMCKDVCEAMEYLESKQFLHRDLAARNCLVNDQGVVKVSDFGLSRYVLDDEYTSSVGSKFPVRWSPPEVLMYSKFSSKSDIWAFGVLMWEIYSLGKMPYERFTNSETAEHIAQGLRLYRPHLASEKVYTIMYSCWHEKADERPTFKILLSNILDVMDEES
Chain of UniProt P51451 (whole entry, looked up): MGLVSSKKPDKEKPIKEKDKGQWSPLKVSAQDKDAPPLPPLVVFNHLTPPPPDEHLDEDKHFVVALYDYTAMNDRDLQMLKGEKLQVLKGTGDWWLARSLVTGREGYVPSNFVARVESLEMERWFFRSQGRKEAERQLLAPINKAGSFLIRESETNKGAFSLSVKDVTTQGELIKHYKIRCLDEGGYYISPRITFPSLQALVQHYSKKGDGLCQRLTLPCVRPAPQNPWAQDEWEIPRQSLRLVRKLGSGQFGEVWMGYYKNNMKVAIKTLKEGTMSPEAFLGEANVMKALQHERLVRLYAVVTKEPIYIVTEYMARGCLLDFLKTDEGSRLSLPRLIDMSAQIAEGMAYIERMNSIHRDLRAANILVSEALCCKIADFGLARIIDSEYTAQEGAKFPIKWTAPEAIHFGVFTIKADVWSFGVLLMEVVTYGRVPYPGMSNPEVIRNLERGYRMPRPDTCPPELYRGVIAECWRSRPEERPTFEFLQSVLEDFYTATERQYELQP
Chain of UniProt P09936 (whole entry, looked up): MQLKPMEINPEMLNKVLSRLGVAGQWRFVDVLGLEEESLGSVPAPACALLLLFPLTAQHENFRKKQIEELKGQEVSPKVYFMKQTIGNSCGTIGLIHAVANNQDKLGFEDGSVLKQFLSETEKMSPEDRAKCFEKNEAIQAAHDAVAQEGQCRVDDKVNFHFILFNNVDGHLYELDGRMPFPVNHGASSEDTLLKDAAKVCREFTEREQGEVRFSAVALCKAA
Chain of UniProt P06241 (whole entry, looked up): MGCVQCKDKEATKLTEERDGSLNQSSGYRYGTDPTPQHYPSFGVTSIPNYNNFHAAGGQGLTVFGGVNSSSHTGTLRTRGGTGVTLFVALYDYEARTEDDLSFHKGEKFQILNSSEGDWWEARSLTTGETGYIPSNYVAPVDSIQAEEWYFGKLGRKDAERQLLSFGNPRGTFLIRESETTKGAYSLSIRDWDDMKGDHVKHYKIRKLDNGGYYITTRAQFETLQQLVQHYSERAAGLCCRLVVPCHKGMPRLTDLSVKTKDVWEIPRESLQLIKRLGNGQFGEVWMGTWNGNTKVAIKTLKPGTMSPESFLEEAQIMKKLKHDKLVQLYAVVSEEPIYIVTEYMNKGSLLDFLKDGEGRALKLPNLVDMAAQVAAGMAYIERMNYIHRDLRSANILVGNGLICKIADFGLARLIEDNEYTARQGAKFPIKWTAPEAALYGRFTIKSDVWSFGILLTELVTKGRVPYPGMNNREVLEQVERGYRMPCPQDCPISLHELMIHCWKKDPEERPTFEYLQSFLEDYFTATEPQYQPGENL
Chain of UniProt Q7Z2W7 (whole entry, looked up): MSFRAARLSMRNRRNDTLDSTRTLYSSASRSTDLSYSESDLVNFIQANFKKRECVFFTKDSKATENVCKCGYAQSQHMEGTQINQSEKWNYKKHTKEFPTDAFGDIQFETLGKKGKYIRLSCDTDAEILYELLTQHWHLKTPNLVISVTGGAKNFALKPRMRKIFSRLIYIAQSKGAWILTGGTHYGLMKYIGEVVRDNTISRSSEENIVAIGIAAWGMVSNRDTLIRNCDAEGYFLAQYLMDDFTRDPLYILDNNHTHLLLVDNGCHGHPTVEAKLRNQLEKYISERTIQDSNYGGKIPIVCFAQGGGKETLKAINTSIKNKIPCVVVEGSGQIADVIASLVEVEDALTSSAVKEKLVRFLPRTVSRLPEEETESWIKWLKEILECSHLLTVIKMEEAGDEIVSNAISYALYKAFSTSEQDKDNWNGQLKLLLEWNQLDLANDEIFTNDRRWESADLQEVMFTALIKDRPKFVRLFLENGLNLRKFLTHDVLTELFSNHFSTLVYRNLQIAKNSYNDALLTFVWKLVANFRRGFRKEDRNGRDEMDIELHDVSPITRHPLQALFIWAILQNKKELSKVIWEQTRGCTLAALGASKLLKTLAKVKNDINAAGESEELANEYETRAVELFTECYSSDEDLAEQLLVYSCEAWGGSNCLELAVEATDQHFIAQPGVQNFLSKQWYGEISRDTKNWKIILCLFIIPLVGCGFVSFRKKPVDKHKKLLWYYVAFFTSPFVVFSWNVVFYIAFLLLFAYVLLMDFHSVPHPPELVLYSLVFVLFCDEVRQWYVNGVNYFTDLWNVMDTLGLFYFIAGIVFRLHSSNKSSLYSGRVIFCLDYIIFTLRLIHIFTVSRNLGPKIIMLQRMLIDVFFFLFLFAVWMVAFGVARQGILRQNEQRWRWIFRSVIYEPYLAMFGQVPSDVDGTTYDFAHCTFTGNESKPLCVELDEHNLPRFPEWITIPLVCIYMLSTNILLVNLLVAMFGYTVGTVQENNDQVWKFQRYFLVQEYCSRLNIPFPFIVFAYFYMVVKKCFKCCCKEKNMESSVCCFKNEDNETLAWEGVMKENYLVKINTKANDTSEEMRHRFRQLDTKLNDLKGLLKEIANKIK
Chain of UniProt O42275 (whole entry, looked up): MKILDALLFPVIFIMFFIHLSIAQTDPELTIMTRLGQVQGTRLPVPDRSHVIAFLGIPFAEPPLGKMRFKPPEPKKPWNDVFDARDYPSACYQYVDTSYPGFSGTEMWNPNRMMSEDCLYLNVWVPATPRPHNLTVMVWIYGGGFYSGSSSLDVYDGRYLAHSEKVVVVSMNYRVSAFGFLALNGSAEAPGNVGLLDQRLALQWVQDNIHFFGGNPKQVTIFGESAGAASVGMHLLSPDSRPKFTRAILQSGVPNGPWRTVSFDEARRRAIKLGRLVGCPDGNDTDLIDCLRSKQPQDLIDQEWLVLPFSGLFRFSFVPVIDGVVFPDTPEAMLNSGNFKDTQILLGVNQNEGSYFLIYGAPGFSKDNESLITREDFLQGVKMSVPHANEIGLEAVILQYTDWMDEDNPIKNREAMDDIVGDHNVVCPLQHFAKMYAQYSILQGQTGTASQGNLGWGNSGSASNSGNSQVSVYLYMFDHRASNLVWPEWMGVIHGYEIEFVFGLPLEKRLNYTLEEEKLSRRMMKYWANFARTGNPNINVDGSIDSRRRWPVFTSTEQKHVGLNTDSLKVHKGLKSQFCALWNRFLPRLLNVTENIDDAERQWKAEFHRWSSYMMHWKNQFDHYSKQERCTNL

O=C(Nc1cccnn1)N1CCC(=Cc2cccc(Oc3ccc(C(F)(F)F)cn3)c2)CC1
inhibition (Nociceptin receptor (OPRL1, Homo sapiens, UniProt P41146); radioligand binding, inhibitor; 50 µM, human, added: [3H]nociceptin): 6%

O=c1c2ccccc2oc2cc(OCCCCc3ccccc3)ccc12
reaction velocity (ache (Electrophorus electricus, UniProt O42275); enzyme activity; 0.73 µM, added: substrate 3.45 mM; higher = faster reaction): 0.0024 a.u.

N#C[C@@H]1CC(F)(F)CN1C(=O)CNC(=O)c1ccnc2ccc(OCCCN3CCN(C(=O)CN4CCN(CC(=O)[O-])CCN(CC(=O)[O-])CC4)CC3)cc12.[18F-].[Al+3]
SUVmax myocardium/liver ratio (Fibroblast activation protein alpha (Rattus norvegicus, UniProt A0A9K3Y732); PET; model, rat, HFpEF, HFD/L-NAME; seventh week; reference: myocardium over liver): 3.58 ± 0.2

O=C(Nc1cnccc1Cl)N1CCN(Cc2ccc3c(c2)OC(F)(F)O3)CC1
inhibition (muscarinic receptor, rat; binding; 10 µM, added: [3H]oxotremorine M): -7%

COC[C@H]1OC(=O)c2coc3c2[C@@]1(C)C1=C(C3=O)[C@@H]2CCC(=O)[C@@]2(C)C[C@H]1OC(C)=O
remaining activity (TRPM8 (Homo sapiens, UniProt Q7Z2W7); antagonist; HEK293; 5 µM; reference: control): 93.3 ± 0.99%

COc1ccc(N2C(=O)N(c3c(C)cccc3Cl)Cc3cnc(Nc4ccc(C5CCN(C)CC5)cc4OC)nc32)nc1
inhibition (FYN (Homo sapiens, UniProt P06241); kinase activity; 0.5 µM): 95%

CN1CCN(c2cc(-c3ccncc3)c(-c3ccc4ccccc4c3)nn2)CC1
inhibition (SUCNR1 (Homo sapiens, UniProt Q9BXA5); antagonist, FLIPR; 10 µM): 1.5%

COc1cc(/C=C/c2ccc(O)cc2)cc(OC)c1
∆G (O-methyltransferase (Sorghum bicolor, UniProt A0A1B6PFV1, W279A); isothermal titration calorimetry; apo protein): -8.26 kcal/mol

C[C@H]1CN(c2n[nH]c3nc(N[C@H]4CC[C@H](NS(=O)(=O)CCC(F)(F)F)CC4)ncc23)CCO1
relative abundance (PRKACA (Homo sapiens, UniProt P17612); inhibitor, Kinobeads competition profiling; 20 µM; reference: vehicle): 1.08

COc1cc2nccc(Oc3ccc(NC(=O)c4cc5c(n(-c6ccccc6)c4=O)CCCC5=O)nc3)c2cc1OC
selectivity ratio (BLK (Homo sapiens, UniProt P51451); cell viability, CellTiter-Glo; Ba/F3 expressing recombinant kinase; reference: BLK IC50 over AXL IC50): > 100

O=C(CCl)C1CCCC2(CC2)C1 (centres unmarked)
labelling (UCHL1 (Homo sapiens, UniProt P09936); covalent, intact protein LC-MS; 12.5 µM): 5.3%

O=C(c1ccc(Cl)cc1)N1CCN2C(=O)N(OC(=O)N3CCOc4ccccc43)C(=O)C2C1 (centres unmarked)
probe labelling ratio (Serine hydrolase RBBP9 (Homo sapiens, UniProt O75884); MS-based ABPP; SW-620 conditioned medium; 10 µM, 1 h, 37 °C, mean protein ratio; reference: compound over DMSO): 1.48

CC[C@@H](C)[C@@H](NC(=O)[C@@H](Cc1ccc(O)cc1)NC(=O)[C@H]1CCCN1C(=O)[C@@H](CCCNC(=N)N)NC(=O)[C@H](N)Cc1c[nH]cn1)C(=O)N[C@H](C)C(=O)N[C@H](Cc1c[nH]cn1)C(=O)N[C@H](CCCNC(=N)N)C(=O)N[C@H](CCCCNC(=O)c1cccc(S(=O)(=O)F)c1)C(=O)N[C@H](Cc1ccc(O)cc1)C(=O)N[C@H](CO)C(=O)N[C@H](Cc1ccccc1)C(N)=O
surface expression (Transferrin receptor protein 1 (Tfrc, Mus musculus, UniProt Q62351); flow cytometry; MC-38; 2 h, unit not given; reference: 0 h): 0.878 and 0.887

CN(C(=O)n1cnc(-c2ccc[n+]([O-])c2)c1)C1CCCCC1
fold change (Carboxylesterase 1C (Ces1c, Rattus norvegicus, UniProt P10959); enzyme activity, ABPP; rat, brain; oral, 30 mg/kg/day, 1 days; reference: vehicle): -4.7

COc1cc(Nc2ncc(F)c(Nc3ccc4c(n3)NC(=O)C(C)(C)O4)n2)cc(OC)c1OC
inhibition (MAP3K10 (Homo sapiens, UniProt Q02779); binding, KINOMEscan; 10 µM, MLK2 kinase): 100%

[2H]c1c([2H])c([C@]2([2H])CCCN2C(=O)C(C)(C)Oc2ccc3cn[nH]c3c2)c([2H])c([2H])c1C([2H])([2H])[2H]
remaining binding (BTK (Homo sapiens, UniProt Q06187); KINOMEscan; 1 µM; reference: DMSO control): 100%

COc1cc(-c2[o+]c3cc(O)cc(O)c3cc2O[C@@H]2O[C@H](CO)[C@@H](O)[C@H](O)[C@H]2O)cc(OC)c1O
bathochromic shift (Albumin (ALB, Homo sapiens, UniProt P02768); binding, visible absorption; 50 µM, pH 7, added: HSA up to 200 µM; reference: without HSA): 57 nm

Some of these lines once more:
COc1ccc(N2C(=O)N(c3c(C)cccc3Cl)Cc3cnc(Nc4ccc(C5CCN(C)CC5)cc4OC)nc32)nc1
inhibition (FYN (Homo sapiens, UniProt P06241); kinase activity; 0.5 µM): 95%

COC[C@H]1OC(=O)c2coc3c2[C@@]1(C)C1=C(C3=O)[C@@H]2CCC(=O)[C@@]2(C)C[C@H]1OC(C)=O
remaining activity (TRPM8 (Homo sapiens, UniProt Q7Z2W7); antagonist; HEK293; 5 µM; reference: control): 93.3 ± 0.99%
